Results pooled from the literature.
A part holds a random share of what one study measured.

Sample 1
Target: Ras GTPase-activating protein-binding protein 1, full length (G3BP1, Homo sapiens, UniProt Q13283)
Chain of UniProt Q13283 (whole entry, looked up): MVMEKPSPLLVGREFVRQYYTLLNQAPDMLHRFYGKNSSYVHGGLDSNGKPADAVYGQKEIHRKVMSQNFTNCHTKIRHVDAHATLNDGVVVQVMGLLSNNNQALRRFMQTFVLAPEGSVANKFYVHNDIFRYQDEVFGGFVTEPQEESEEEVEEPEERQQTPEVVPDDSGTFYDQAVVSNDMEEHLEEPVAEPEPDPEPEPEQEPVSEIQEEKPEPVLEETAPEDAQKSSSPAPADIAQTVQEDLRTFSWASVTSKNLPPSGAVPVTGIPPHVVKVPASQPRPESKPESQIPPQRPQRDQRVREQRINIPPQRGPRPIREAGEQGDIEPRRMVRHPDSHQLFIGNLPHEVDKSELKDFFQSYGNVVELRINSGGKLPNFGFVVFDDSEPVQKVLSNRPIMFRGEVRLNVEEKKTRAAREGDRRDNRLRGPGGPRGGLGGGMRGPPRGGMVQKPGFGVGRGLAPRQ
Technique: RNA Bind-n-Seq
Molecule type: RNA
Matrix: in vitro
Concentration: 200 nM
Notes: whole 134-nt RNA, ends assumed
Together with: 150 mM LiCl
Baseline: input library
Direction: higher = stronger binding
Each molecule: 7-deaza-guanosine replaces G
With `GGGAGUUCUACAGUCCGACGAUCUCCUGUGCUACACAUCGUAUGUACCGAAUCGGGGAAAAAAAGGGGUUUGGGGAAAGGGGAAAGUAUUAUGUUACGCCGUUCGGAUCUGCAUGGAAUUCUCGGGUGUCAAGG` the log2 enrichment was -0.786.
With `GGGAGUUCUACAGUCCGACGAUCUAACGUUAGAGGAGGAUCUGAUGGAUAUGGCAGUGGACGUGGAUUUGGGGAUGGCUAUAAUGGGUAUGGAGGAGGACCUGGAGGUGGCAAUGGAAUUCUCGGGUGUCAAGG` the log2 enrichment was -0.336.
With `GGGAGUUCUACAGUCCGACGAUCGCAGGAAGUUAAAACAAAUGGAAAUGCUUCGGAUAGUGGCAGGGGUGGGGGUUGCUAAGGAAAGGGUGGGAUGGGAGUGGGUAAAGAGUUUGGAAUUCUCGGGUGUCAAGG` the log2 enrichment was 0.113.
For `GGGAGUUCUACAGUCCGACGAUCUGGCAGCGGCCAUGGACCGCUUCGUUUGGACCAGCGGCCUCCUGGAGAUCAACGAGACCCUGGUGAUCCAGCAGCGCGGGGUGCGAAUCUUGGAAUUCUCGGGUGUCAAGG`, the log2 enrichment was -0.988.

Sample 2
Target: Sal-like protein 4, full length isoform B (SALL4, Homo sapiens, UniProt Q9UJQ4-2, residues 1-616)
Technique: universal PBM
Molecule type: double-stranded DNA, one strand shown
Matrix: in vitro
Concentration: not given
Notes: 8-mer, flanks averaged, mean of replicates
Direction: higher = stronger binding
For `ACTGCACA`, the E-score was 0.00436.
With `AAGACGCA` the E-score was 0.0047.
With `AACCCGGT` the E-score was -0.335.
`AGGTCAAG` gave an E-score of -0.146.
For `CGACTACA`, the E-score was 0.0876.
With `ACGTGTTG` the E-score was 0.157.
`AATCGGCA` gave an E-score of 0.0736.
`GCATTCGA` gave an E-score of -0.0298.

Sample 3
Target: Centromere-binding protein 1, full length, His-tagged (CBF1, Saccharomyces cerevisiae, UniProt P17106, residues 1-351)
Chain of UniProt P17106 (whole entry, looked up): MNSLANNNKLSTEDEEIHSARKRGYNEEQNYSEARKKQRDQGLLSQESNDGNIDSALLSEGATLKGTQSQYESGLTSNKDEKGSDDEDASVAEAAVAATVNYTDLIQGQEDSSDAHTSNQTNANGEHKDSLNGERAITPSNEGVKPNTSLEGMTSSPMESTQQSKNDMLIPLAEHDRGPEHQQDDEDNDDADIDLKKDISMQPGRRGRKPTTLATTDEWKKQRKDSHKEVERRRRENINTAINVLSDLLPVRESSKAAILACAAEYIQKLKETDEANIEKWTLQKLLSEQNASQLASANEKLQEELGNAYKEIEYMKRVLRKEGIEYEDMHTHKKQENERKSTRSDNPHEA
Technique: competition protein-binding microarray
Molecule type: double-stranded DNA, one strand shown
Matrix: in vitro
Concentration: 2 µM
Notes: whole 60-bp probe, lowest competitor level
Together with: Pho4 competitor, 0.05 µM
Direction: higher = stronger binding
All sequences stand within: … GTCTTGATTCGCTTGACGCTGCTG
For `CGTCCTAGTGATTGTCACACAACTTCCATGAGGAAG`, the fluorescence intensity was 80.2 a.u.
The fluorescence intensity of `CTAACGAAGGTTTGTCCGGTGGGTGACAAGCCAAGT` is reported as 66.3 a.u.
`TTGGTAGAATCTTTGCATGTGTGAGGTATGAATATT` gave a fluorescence intensity of 98.3 a.u.
`CTAACGAAGGTTTGACCGGTGGGTGACAAGCCAAGT` has a fluorescence intensity of 67.1 a.u.
With `AAAGCGGTAATTTTTCACGTGCTATCAAATATCTAT` the fluorescence intensity was 2660 a.u.
For `CGTCCTAGTGATTGGGGTGTGGGTGCCATGAGGAAG`, the fluorescence intensity was 80.7 a.u.
With `ACAGCCGCGGTTGGGTGCGTGGGTACGGTAATTTAA` the fluorescence intensity was 54.1 a.u.

Further values, each from its own experiment
With `PhoQ, residues 284 288 289 292 302 303 WVSSAF` the fold induction was 14 (PhoP, residues 12 14 15 18 19 SEGLL (Escherichia coli, UniProt P23836); Sort-seq, item: YFP reporter; E. coli; PhoQ-PhoP variant library, together with: 10 µM Mg2+; baseline: high Mg2+ state, higher = stronger signaling).

Some of these lines once more (sample 1):
With `GGGAGUUCUACAGUCCGACGAUCGCAGGAAGUUAAAACAAAUGGAAAUGCUUCGGAUAGUGGCAGGGGUGGGGGUUGCUAAGGAAAGGGUGGGAUGGGAGUGGGUAAAGAGUUUGGAAUUCUCGGGUGUCAAGG` the log2 enrichment was 0.113.
